Measurements gathered from unrelated publications.
Each numbered part is a random draw from the data of one study; scales do not carry over between parts.

Series 1
Target: Histone acetyltransferase KAT6A, winged helix 1, GST fusion (KAT6A, Homo sapiens, UniProt Q92794, residues 1-85)
Method: protein binding microarray
Form: double-stranded DNA, one strand shown
Sample: in vitro
Tested at: not given
Setting: 8-mer, flanks averaged, mean of 2 arrays, mostly near background
Relative to: not given
Direction: higher = stronger binding
Residues (chain): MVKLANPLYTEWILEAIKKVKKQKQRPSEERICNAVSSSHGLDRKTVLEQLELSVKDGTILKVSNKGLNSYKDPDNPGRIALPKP
Oligonucleotide | E-score
GTTGTAAA | -0.106
CCTAGCAG | -0.167
ATAGTCTG | -0.189
ACGAGCGC | 0.314
ACGCTAGT | 0.157
CCAAAGTC | -0.233
ATTCGATA | -0.0587
CATAGCGG | 0.291
GGGCGTCA | 0.157
ACAGCCTA | -0.106
AAGAGTTA | -0.346
GTTTATTA | 0.0628
TCATAAAA | -0.0714
ACTGAGTG | -0.209
AGGATTGC | -0.165
ACCCAGAC | -0.0406
CCCCGGTA | 0.226
AACCGACC | 0.107
CCTGGCAA | -0.185
AAATTTAG | -0.14
AACCTAGA | -0.115
AACAGGTT | -0.197
CATAGGCC | 0.0753
ACCATGTA | -0.114
GTGGACAA | -0.0778

Series 2
Target: Fragile X messenger ribonucleoprotein 1, C-terminal low-complexity region (Fmr1, Mus musculus, UniProt P35922)
Method: RNA Bind-n-Seq
Form: RNA
Sample: in vitro
Tested at: 200 nM
Setting: whole 134-nt RNA, ends assumed
Together with: 150 mM LiCl
Relative to: input library
Direction: higher = stronger binding
All molecules: 7-deaza-guanosine replaces G
Constant ends, left off below: GGGAGUUCUACAGUCCGACGAUC … UGGAAUUCUCGGGUGUCAAGG
Oligonucleotide | log2 enrichment
AAGUCCUGUGCUACACAUCGUAUGUACCGAAUCGGGAAAAGGGGAAAAGGGAAAAGGAAAGUAUUAUGUUACGCCGUUCGGAUCUGCACU | 0.143
AGUCCUGUGCUACACAUCGUAUGUACCGAAUCGGGGAAAGGGGUUUUUGGGGUGGGGAAAGUAUUAUGUUACGCCGUUCGGAUCUGCACU | -0.631
AAGUCCUGUGCUACACAUCGUAUGUACCGAAUCGGGGAAAGGGGAAAGGGGAAAGGGAAAGUAUUAUGUUACGCCGUUCGGAUCUGCACU | 0.999
AAGUCCUGUGCUACACAUCGUAUGUACCGAAUCGGGGCCCCGGGCCCCGGCCCCGGGAAAGUAUUAUGUUACGCCGUUCGGAUCUGCACU | -2.96
UGGGAGGUGGAUUUUGUUUAUUUUUUUAGCUCAUUUCCAGGGGUGGGAAUUUUUGUUUAAUAUGUGUCAUGAAUAAAGUUGUUUUUGAAA | -0.392
UCAAGUCCUGUGCUACACAUCGUAUGUACCGAAUCGGGGAGGGGUGGGGAGGGGAAAGUAUUAUGUUACGCCGUUCGGAUCUGCACUUCC | -0.0787
CCUGUGCUACACAUCGUAUGUACCGAAUCGGGGUUUUUUUGGGGUUUGGGGUUUUUGGGGAAAGUAUUAUGUUACGCCGUUCGGAUCUGC | -0.995
UGGCCCUGGUGGCAUGCGGGGAGGAAGAGGUGGCCUCAUGGAUCGUGGAGGUCCCGGUGGAAUGUUCAGAGGUGGCCGUGGUGGAGACAG | 0.342
ACCAUGCAGGUGGGCAUCUUUGGGAAGUGGGGCAAGGGGGGGAUUGGGAGGGGGGUAACACUUUGGGAACAGGUGGUCCCAGGUCGUUUC | 1.11
AGUCCUGUGCUACACAUCGUAUGUACCGAAUCGGGGUUUUGGGGUUUUGGGUUUUGGGAAAGUAUUAUGUUACGCCGUUCGGAUCUGCAC | -1.17
AAGUCCUGUGCUACACAUCGUAUGUACCGAAUCGGGGAAAGGGGAAAGGGGAGGGGAAAGUAUUAUGUUACGCCGUUCGGAUCUGCACUU | 0.583

Series 3
Target: RNA binding protein fox-1 homolog 2, RRM domain, GST-SBP tag (RBFOX2, Homo sapiens, UniProt O43251-10, residues 100-194)
Method: RNA Bind-n-Seq
Form: RNA
Sample: in vitro
Tested at: 365 nM
Setting: natural RNA segment, single round, ends assumed
Relative to: no-protein control
Direction: higher = stronger binding
Constant ends, left off below: GGGAGUUCUACAGUCCGACGAUC … UGGAAUUCUCGGGUGCCAA
Target sequence (chain): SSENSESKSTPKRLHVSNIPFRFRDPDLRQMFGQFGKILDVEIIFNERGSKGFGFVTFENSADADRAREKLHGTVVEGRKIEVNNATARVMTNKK
Oligonucleotide | RBNS enrichment (R)
CUCCGAAGACUUAGCGACGCCACUGGCGGCACCUUCUCCUGCGCCCAGUGAUGUUUCCACGGUGCCUGUACACAGCCGAGCAGCAUUUCCGUUGAAGGACUUGCAUCCCC | 0.394
UGAAUCUUGAAGGAAGAAGAUGAAUCAGAUGAUGACAAUAUGUAAUAUUUUCUUCCCCAUCCGCUGGUUUACAUUUCUGUAACAGUUGCAUAUGGCUAGCACCAUGGACU | 0.653
UAGCUUUGGGCAGAGCCCUUGCUUCCUGGCUGCUUCAGGGCUCAGGGGCUCCCAGCCCUCCUUCCCAGGCUGAUGCUGGGUCCUCUCUCUCUUUGGGGCUUCUCCCUCCC | 0.449
AAGAGAGACGUCAGAAGAUGUUAGAAUAGGUCAAAGCCAAGGCUCUGGUGGGCUGAGGGAAGGUUUGUAGCUGCGUUUAGUGGUAUACAUCUUUAGUCCCAGCAUAGGCA | 0.544
AUUGUGCCCUUGGAAUUUAAUACAAGUGCCUAACCCACAGUAGGGUUGAUUGAUUCACUGAUUAGUUUUACUGCCAUGUGCCUAUAACUAUAGGUUAUUCUCUUUCCUUU | 0.292
UAAAUGUGGAUUUUGUAGAUGUUAGGGUAUAAGUUGCUGUAAAAUUUGUGUAAAUUUGUAUCCACACAAAUUCAGUCUCUGAAUACACAGUAUUCAGAGUCUCUGAUACA | 0.415
CACACUGCAGCUGAGGCCCCAGGUGGCAGCCAUGGAUCAUGUAGACUUCCAGAUGGUCUCCCGAACCGCCUGGCUCUGCCGGCGCCCUCCUCACGUCAGGAGCAAGCAGC | 0.217
UCGUUCCUGCUUUUUCAUUGUCAUUAAAUUCUGUAGAAACCCAUUGUCAUUAGCUCCAAGUGUAAAUUUGGGUCAAGGAGACAGAAUAAUAAUGGGAAUCUCGGAGUUCG | 0.417
GGUGAAUGUGAGGCUUCUACUUUUAUCCAAAAGGAGCUAUAUUAGCUAGGCUGUUUCUGAUAUCCAAUCAUUGGUUUAACAAUAAAGGCAAUUUGUUUAAUCAGUUAACG | 1.13
CAGCCCACGCUGGUCUGUCCCCAUGCCUUCCCAGGGCUUCUUCAUGUCGGAUGCACCCAAGUCCUUAGCCCAGCUGUGCCACCUGCAGGAGUUCGCUCUUGCGUUUCUUC | 0.405
CAAACCUUUUCAGCACUUCUCUCAGAGCAAAUGGAAACACACAGUAAGUAGCUUUCUGACUACAUUAUUUUCUGGUCACUUUUAAAGAAAGUUUACAACCUGUUCUGAAA | 0.365
GUCAUGCAUUGUUCCAUAGUCGCCCUCAUGGGGUCAUUUCAUGCCUCCAGGCGGGGCCCGGAAGUAGUAGUAGUAGUAGUAGUAGUAGUAGUAGUAGUAGUAGUAGUAGU | 0.964

Series 4
Target: Hepatocyte nuclear factor 3-alpha (Foxa1, Mus musculus, UniProt P35582, residues 1-468, full length assumed)
Method: EMSA with sequencing
Form: double-stranded DNA, one strand shown
Sample: in vitro
Tested at: 10 and 20 nM
Setting: whole designed probe, mean of two concentrations, ends assumed
Relative to: negative control set to 0
Direction: higher = stronger binding
Constant ends, left off below: GTGAGCGGTGCCCATTGATGGGGAAC … TTTCACTGGGATCGTGGGGAC
Construct (chain): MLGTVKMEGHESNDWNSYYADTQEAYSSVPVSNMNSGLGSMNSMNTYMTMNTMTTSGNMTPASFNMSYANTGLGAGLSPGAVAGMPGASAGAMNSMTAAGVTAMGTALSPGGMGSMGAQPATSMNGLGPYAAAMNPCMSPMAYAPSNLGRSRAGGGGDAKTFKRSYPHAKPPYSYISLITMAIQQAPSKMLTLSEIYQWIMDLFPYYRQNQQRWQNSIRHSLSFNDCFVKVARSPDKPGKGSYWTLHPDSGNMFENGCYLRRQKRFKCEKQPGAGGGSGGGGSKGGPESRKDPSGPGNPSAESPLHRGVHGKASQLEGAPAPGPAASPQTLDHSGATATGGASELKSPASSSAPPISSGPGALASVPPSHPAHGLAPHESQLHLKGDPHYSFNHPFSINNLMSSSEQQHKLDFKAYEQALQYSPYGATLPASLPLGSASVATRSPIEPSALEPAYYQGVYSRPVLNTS
Oligonucleotide | normalised bound fraction
TCCCCCAAAACGTTATTGCTTGCACTGTGGGACCTGATCCAGTGGGCTGTCATGGACGAACGGCAACACCCACTGGGACCCTATTCCCTTTGTGTAAACAGAGCAGCTCCAAACCGCGGCCCTCCTGGGCCCCCTAGCGGCAGCAGCGATGGGCACAACGTTCAAAGATCCCTCAAAGCCCTCGGGGAGTGGC | 0.446 ratio
GAGAGTCTGTGAATAGGTGCCTACCTCCATCCCGCACTGGGGGCATGAGAGGAGCAGGAACCTTGCATTAGACACAAAGGGTACCCAAGCCAAAATAATCTTCCATAAAGGGCCCCGCCCTGAGGTCCTTGGCATGCTACAGAATAACCTGTTCCAAGCCATGTGGGCAAGACTAAAGCGATACCCTCCCAAG | -0.0729 ratio
GAATCTACAGACTGGTGATTGTAAAGATTGTTCTAGCTTTTACTATTCTATACAGTGTTCTAAATATGGAGTAGGAAGAGATTTATTGGACAATGTAATCTTATAGTCTGAAACTAAGGCTGTAATACTCATACTGTTTATAGCTGCCAACAATTTCTTCCAACAAAAGGGTTAGTAAAATTTGGTCAATAGT | -0.0257 ratio
CCTGGCTGTGTGCTAATGGACAGGAGAAGAACTTGGATTTTGATAGCTTCTATATTACTTATAATTGTGTACAAAAAATTACATTTATTGCCCTAGATTACTTTTATGTTTATGAGCTTACTTGTTCAATGTCCCTCAACTGAAAGTGCATCTCAAAATGAGATTTATGAATTTGTACATTTGAGTTCTGTGT | 0.0232 ratio
ATCTTCCCCCTCTTCCTTGCCCCACCAGCTCACCTTCCCGGGTATATTGGAGATAGGAAATTAATATAAGCCGGCATTCGTTAACCCTCTTCACGCGCATACTGCCAGAGCAAACAGATCTAACATGGTCCTTTGGCGACGCCAGGCTCCGGGAGAGCAAAGCACCGTGTCAGGGCCATGATCCGGGGTGGCC | 0.165 ratio
TCTATATAATTTCCTTTTTCATTTTTTAAATAAATAAAAATATTAAAAAGCTAGCTTGTGTTCTACTTAGTTAATATTTAAGAGTCTGTTCATGTTTACACTGGAAAGGCAAGACTGGTATCATTGTTGATATTATTGTTATAATGTGGGAGACTCTTAGAGGCAAATCCAGGATTTTCTTCGTGTATCAAAT | 0.351 ratio
TGTTAATGTAAATATCATATCCATTAGCTCCTTTGTCGTGTCTTTTGTAATTCAATGGATGAAATTATATAAGGGAATTTATAATGCTCCCTAAGTAAATATGGACTTGAAGTATAATATTTCTAAAGAGTTATGTTAATTTTATTAATTCTATTTTAGTACATTTTAGGCAACCCTTCTGGTTCTGCACTAT | 0.485 ratio
GAAAATATTTATAGTTTCTCTAGGTTGTCAAGAATTGAATTCCTTTTAAATGTAGGCGATGTCATTTTATTTTCTTTGTTTACTTTGAACTTATGTTTACTCTTAATGAGGTTATTTACTTTTCCTACTTGAATTCAGAATGGAAACCATCTGTGACAGGGTTTATATTAACATGACTTTACTATCCACCTGT | 0.55 ratio

Repeated from above (series 2):
Oligonucleotide | log2 enrichment
AAGUCCUGUGCUACACAUCGUAUGUACCGAAUCGGGGCCCCGGGCCCCGGCCCCGGGAAAGUAUUAUGUUACGCCGUUCGGAUCUGCACU | -2.96
UGGGAGGUGGAUUUUGUUUAUUUUUUUAGCUCAUUUCCAGGGGUGGGAAUUUUUGUUUAAUAUGUGUCAUGAAUAAAGUUGUUUUUGAAA | -0.392
UCAAGUCCUGUGCUACACAUCGUAUGUACCGAAUCGGGGAGGGGUGGGGAGGGGAAAGUAUUAUGUUACGCCGUUCGGAUCUGCACUUCC | -0.0787
CCUGUGCUACACAUCGUAUGUACCGAAUCGGGGUUUUUUUGGGGUUUGGGGUUUUUGGGGAAAGUAUUAUGUUACGCCGUUCGGAUCUGC | -0.995
UGGCCCUGGUGGCAUGCGGGGAGGAAGAGGUGGCCUCAUGGAUCGUGGAGGUCCCGGUGGAAUGUUCAGAGGUGGCCGUGGUGGAGACAG | 0.342
ACCAUGCAGGUGGGCAUCUUUGGGAAGUGGGGCAAGGGGGGGAUUGGGAGGGGGGUAACACUUUGGGAACAGGUGGUCCCAGGUCGUUUC | 1.11
AGUCCUGUGCUACACAUCGUAUGUACCGAAUCGGGGUUUUGGGGUUUUGGGUUUUGGGAAAGUAUUAUGUUACGCCGUUCGGAUCUGCAC | -1.17
AAGUCCUGUGCUACACAUCGUAUGUACCGAAUCGGGGAAAGGGGAAAGGGGAGGGGAAAGUAUUAUGUUACGCCGUUCGGAUCUGCACUU | 0.583
